Experimental data of several laboratories.
Every numbered part comes from another study and shows a few of its results, in no order. Changes are numbered by the printed parent chain.

Study 1
Target: RNA binding protein fox-1 homolog 2, RRM domain, GST-SBP tag (RBFOX2, Homo sapiens, UniProt O43251-10, residues 100-194)
Method: RNA Bind-n-Seq
Molecule type: RNA
Sample: in vitro
Concentration: 365 nM
Notes: natural RNA segment, single round, ends assumed
Relative to: no-protein control
Reading: higher = stronger binding
Construct (chain): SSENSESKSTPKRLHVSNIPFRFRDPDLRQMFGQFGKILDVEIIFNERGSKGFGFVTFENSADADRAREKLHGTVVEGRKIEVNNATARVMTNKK
Strand | RBNS enrichment (R)
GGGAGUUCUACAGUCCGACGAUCUUCUCUCUCCUGUAAAUCCACGAGCACGGUCUGGAUCUGGAUGAAUAAAUAUAUUUCCUUAGGUGAUUUGGAUUUAUAACUUCUAUGGUCAUUCUUCCAAAGCUCUUUCCUGGAAUUCUCGGGUGCCAA | 0.641
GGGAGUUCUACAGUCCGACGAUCGAGUCUUUUUUUUUUAAGUGAAAUUUAUUGAGGAAAAAUAUGUGAAGGACCUUCACUCUAAGAUGUUAUAUUUUUCUUAAAAAGUAACUCCUAGUAGGGGUACCACUGAAUGGAAUUCUCGGGUGCCAA | 0.388
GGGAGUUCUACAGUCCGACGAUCUUCCCUUUAGCACGUUUAAAGUUCUGUGUAUUUAAUUGUAAACUGUACUAGUCUGUGUGGGACUGUACACACUUUAUUUACUUCGUUUUGGUUAAGUUGGCUUCUGUUUCUGGAAUUCUCGGGUGCCAA | 8.14
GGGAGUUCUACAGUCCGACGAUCGUUUUUCUCAGCGCAGUUUUGUUCUGUGUGUCCAUUGGAUUACAAACUUUAUUAAAAAAUACAAAACCCUCAGGUGUGAAGGUGGUUGUCACUCAGUGGGCGCCUCGGUUUGGAAUUCUCGGGUGCCAA | 0.367
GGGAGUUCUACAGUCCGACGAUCGGCAGUGCGUGGAAAGGCCGGGGAGGUGCAGAAACCAGAGCCCAGGGCAAUGGUGUCUGUCCAGCCCCUCCCUCUGUCCCUGUGCUCCAAGCUGCCCCCGGCUGCAGCCCUGGAAUUCUCGGGUGCCAA | 0.509
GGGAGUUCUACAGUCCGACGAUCUAAUGGAAGAAUUGAGACAAAAAUCCAGUGUAGCUGGCCACUUAUCCAGGGCUUUUUCUACUUCAUCACAAGGAAUGUUUUGAAAGUGUCUGCUUUUUUUAUCCUUAAAAUGGAAUUCUCGGGUGCCAA | 0.527
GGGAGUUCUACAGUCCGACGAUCCCAGAAGGCUUUCAUUUGUACUCUGCUGGGAGUGACUGGGAAAAACUCCUUCCCUGCUGCUGAGUGGAGAGAGGCCUCAUCCGGCUUUGACCCACCAUCCGUUGCAGAAGUGGAAUUCUCGGGUGCCAA | 0.221
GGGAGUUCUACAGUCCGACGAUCCGCAUGGUGAUCCUCCCCGCUCAGCCUCCUGAGGACUGGGAUUAAAGGUGUGUGCCUCCAUACUCUUGACACCAGUUUUCAGUUGAGGAUUGUUGAGCAUAGCUGGCUUGUGGAAUUCUCGGGUGCCAA | 1.23

Study 2
Target: Interferon regulatory factor 5, full length, phosphomimetic (IRF5, Homo sapiens, UniProt Q13568-2, residues 1-514, S451D/S453D/S456D/S462D)
Method: protein-binding microarray
Molecule type: double-stranded DNA, one strand shown
Sample: in vitro
Concentration: 940 nM top
Notes: 60-bp whole probe
Added: salmon DNA 0.4 mg/ml
Relative to: random background probes
Reading: higher = stronger binding
Constant ends, left off below: GCCTAGCAC … GTCTTGATTCGCTTGACGCTGCTG
Strand | fitted relative affinity [z-score]
TTAGATTGCAGTCTCGATTAGTGCTAG | 2.19
GTTGAGTTCTGTTGCAAAGGGTGCTAG | -0.0249
GACGGTTCCGGATTCGGGACGTGCTAG | 0.817
TTAGGTTTGGGTTTCGGTTAGTGCTAG | 7.91
ATGACAATGATGTTTTGAGTTGTGCTA | -0.124
GACGGTATCCTAATCCTGACGTGCTAG | -0.245
GACGAACTGAGACTGTAGACGTGCTAG | -0.0942
CATTCTCTGCTTCTGTATGGGTGCTAG | 2.66
TACATTTTCCAAATGCCCCTGTGCTAG | 0.388
TCAGTTCTGAGTCTTCCACTGTGCTAG | 0.00153
GACGATATCTGTTTCGAGACGTGCTAG | 1.39
TTAGGACTGCTCATCCTTTAGTGCTAG | -0.0989
TTCCAATTCTCTTTTCACTTGTGCTAG | 2.86
GACGATCTCAGACTGGAGATGTGCTAG | -0.416
TTATGTCTCCTACTGCTTTAGTGCTAG | 0.809
GACGGTCTCCTACGGCTGACGTGCTAG | -0.522
TTGTTTTACAATTTGCTTTAGTGCTAG | 0.312
TCTTGTCTGGAGTCTCTGTTCGTGCTA | 1.04
TTAGATTTCCTTCTCCTTTAGTGCTAG | 0.952

Study 3
Target: CCNA1, cyclin fold, Cln2 fusion (human)
Method: yeast growth competition, sequencing
Sample: yeast
Notes: weak parent motif
Relative to: not given
Reading: higher = stronger binding
Starting sequence: GMNC docking peptide (human); KNAKRNLSSEFAN; partner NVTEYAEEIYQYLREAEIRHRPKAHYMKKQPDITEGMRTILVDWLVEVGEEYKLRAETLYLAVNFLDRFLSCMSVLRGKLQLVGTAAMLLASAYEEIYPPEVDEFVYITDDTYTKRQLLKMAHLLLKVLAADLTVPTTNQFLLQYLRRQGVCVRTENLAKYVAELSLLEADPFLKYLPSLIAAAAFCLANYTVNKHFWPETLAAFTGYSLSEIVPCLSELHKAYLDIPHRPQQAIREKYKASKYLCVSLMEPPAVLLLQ
Variant | normalised enrichment score
A12Y | 0.172
S9T | 0.704
K4E | 0.0131
E10P | 0.017
E10R | 0.214
L7R | 0.256
E10F | -0.22
N2I | 0.519
E10G | 0.0914
L7W | 0.201
K4Q | 0.253
S8Q | 0.951
F11W | 0.449
N6W | -0.152
S8D | 0.506
F11T | 0.119
K4H | -0.411
S8P | 0.0256

Single results of other studies
Molecule | target | test | system | conditions | scale | endpoint | value
PhoQ, residues 284 288 289 292 302 303 AQGLTV | PhoP, residues 12 14 15 18 19 AQCLL (Escherichia coli, UniProt P23836) | Sort-seq, measured: YFP reporter | E. coli | PhoQ-PhoP variant library, added: 10 µM Mg2+ | relative to: high Mg2+ state, higher = stronger signaling | fold induction | 3.54
